Results of several laboratories.
Every numbered part comes from another study and shows a few of its results, in no order.
Sequence of UniProt Q13237 (whole entry, looked up): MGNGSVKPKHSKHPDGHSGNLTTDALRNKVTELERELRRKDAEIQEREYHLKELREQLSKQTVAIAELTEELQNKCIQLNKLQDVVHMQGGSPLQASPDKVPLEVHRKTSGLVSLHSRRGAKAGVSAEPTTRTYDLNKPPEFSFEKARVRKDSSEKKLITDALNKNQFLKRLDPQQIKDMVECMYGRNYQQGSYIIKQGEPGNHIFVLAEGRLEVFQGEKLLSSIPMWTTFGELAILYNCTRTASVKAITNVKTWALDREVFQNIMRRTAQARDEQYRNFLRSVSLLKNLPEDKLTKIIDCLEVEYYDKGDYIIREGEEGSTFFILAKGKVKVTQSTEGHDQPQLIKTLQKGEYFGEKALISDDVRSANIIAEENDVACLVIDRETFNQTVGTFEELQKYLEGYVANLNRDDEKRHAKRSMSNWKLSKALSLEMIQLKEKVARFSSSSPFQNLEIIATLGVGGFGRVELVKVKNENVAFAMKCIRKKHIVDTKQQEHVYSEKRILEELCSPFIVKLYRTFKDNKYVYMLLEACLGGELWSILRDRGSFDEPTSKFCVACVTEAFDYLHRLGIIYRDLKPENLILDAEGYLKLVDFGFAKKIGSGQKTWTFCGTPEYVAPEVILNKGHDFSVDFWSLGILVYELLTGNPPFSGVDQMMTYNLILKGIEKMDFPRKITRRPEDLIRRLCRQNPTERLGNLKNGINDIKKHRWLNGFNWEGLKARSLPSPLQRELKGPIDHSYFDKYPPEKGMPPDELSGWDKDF
Sequence of UniProt P78356 (whole entry, looked up): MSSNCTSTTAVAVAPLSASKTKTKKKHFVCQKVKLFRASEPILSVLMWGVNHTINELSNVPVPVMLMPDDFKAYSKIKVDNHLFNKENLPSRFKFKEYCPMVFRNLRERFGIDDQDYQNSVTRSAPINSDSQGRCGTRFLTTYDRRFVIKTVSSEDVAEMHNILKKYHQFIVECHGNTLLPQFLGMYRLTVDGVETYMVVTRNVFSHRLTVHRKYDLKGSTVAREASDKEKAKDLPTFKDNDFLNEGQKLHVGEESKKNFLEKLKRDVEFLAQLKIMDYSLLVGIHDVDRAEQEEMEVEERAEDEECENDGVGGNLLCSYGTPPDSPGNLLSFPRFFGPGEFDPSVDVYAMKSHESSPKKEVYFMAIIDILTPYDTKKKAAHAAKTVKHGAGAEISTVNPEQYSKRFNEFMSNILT
Sequence of UniProt P19525 (whole entry, looked up): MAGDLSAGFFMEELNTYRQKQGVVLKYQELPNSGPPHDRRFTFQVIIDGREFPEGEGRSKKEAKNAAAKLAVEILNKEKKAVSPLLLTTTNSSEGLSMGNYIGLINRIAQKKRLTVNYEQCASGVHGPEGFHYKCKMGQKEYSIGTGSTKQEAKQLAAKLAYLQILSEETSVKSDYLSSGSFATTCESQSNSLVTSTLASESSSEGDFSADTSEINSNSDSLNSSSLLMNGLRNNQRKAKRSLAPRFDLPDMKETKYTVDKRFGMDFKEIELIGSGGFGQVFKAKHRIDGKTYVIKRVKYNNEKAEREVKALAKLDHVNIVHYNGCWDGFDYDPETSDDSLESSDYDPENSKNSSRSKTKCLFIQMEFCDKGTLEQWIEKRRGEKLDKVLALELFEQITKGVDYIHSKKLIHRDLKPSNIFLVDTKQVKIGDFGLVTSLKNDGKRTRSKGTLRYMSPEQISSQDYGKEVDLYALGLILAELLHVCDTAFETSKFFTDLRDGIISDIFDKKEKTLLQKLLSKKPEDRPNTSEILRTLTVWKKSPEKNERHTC

Series 1
Target: Eukaryotic initiation factor 4A-I (EIF4A1, Homo sapiens, UniProt P60842, residues 1-406, full length assumed)
Sequence of UniProt P60842 (whole entry, looked up): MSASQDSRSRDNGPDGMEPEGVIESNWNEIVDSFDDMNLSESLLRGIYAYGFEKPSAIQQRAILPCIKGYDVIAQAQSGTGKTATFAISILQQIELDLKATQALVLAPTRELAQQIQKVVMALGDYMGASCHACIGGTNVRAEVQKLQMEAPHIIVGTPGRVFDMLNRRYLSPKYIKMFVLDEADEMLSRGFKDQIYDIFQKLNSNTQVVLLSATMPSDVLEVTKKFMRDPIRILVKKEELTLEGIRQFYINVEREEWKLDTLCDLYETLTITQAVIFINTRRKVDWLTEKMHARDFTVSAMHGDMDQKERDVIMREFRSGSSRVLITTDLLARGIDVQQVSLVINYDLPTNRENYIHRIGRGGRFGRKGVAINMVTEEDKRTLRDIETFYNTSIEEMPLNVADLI
Technique: RNA Bind-n-Seq
Molecule type: RNA
Medium: in vitro
Concentration: 15 pmol
Notes: 4-mer, random 30-nt RNA, single round
Added: 3 µM DMDA-PatA, 2 mM AMP-PNP
Reference: input library
Reading: higher = stronger binding
| Oligonucleotide | 4-mer enrichment [fold] |
| --- | --- |
| GGUU | 1.34 |
| UAUG | 1.31 |
| AUCA | 0.504 |
| UUAG | 1.28 |
| AAAU | 0.996 |
| CGCA | 0.749 |
| GCCG | 0.647 |
| GCAA | 0.799 |

Series 2
Target: Ras GTPase-activating protein-binding protein 1, C-terminal RGG region (G3BP1, Homo sapiens, UniProt Q13283)
Sequence of UniProt Q13283 (whole entry, looked up): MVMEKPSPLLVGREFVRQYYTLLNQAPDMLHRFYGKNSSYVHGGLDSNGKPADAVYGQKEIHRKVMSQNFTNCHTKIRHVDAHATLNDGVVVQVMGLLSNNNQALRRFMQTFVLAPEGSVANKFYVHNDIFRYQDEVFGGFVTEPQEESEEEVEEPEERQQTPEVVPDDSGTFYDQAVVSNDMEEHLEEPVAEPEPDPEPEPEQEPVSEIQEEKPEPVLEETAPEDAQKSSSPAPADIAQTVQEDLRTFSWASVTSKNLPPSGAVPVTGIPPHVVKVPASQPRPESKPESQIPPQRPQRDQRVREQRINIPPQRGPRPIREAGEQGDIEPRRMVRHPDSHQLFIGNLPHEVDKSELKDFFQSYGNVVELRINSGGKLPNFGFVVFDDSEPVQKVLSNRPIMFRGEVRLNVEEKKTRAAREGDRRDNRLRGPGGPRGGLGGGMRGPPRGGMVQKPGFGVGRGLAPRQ
Technique: RNA Bind-n-Seq
Molecule type: RNA
Medium: in vitro
Concentration: 1 µM
Notes: whole 134-nt RNA, ends assumed
Added: 150 mM KCl
Reference: input library
Reading: higher = stronger binding
All sequences stand within: GGGAGUUCUACAGUCCGACGAUC … UGGAAUUCUCGGGUGUCAAGG
| Oligonucleotide | log2 enrichment |
| --- | --- |
| UGGGAGGUGGAUUUUGUUUAUUUAUUUAGCUCAUUUCCAGGGGUGGGAAUUUUUUUUUAAUAUGUGUCAUGAAUAAAGUUGUUUUUGAAA | 2.79 |
| ACCAUGCAGGUGGGCAUCUUUGGGAAGUGGGGCAAGGGGGGGUUAGGGAGGGGGGUAACACUUUGGGAACAGGUGGUCCCAGGUCGUUUC | 2.13 |
| CCUGUGCUACACAUCGUAUGUACCGAAUCGGGGAAAAAGGGGUUUUUUUGGGGUUUGGGGAAAGUAUUAUGUUACGCCGUUCGGAUCUGC | 0.272 |
| AGUCCUGUGCUACACAUCGUAUGUACCGAAUCGGGGAAAAAGGGGAAAGGGGUGGGGAAAGUAUUAUGUUACGCCGUUCGGAUCUGCACU | 1.98 |
| AGUCCUGUGCUACACAUCGUAUGUACCGAAUCGGGAAAAAGGGUUUGGGUUUUUGGGAAAGUAUUAUGUUACGCCGUUCGGAUCUGCACU | 0.665 |
| GUCCUGUGCUACACAUCGUAUGUACCGAAUCGGGGUUUUUUUGGGGAGGGGUUUGGGGAAAGUAUUAUGUUACGCCGUUCGGAUCUGCAC | 2.18 |
| UGGGAGGUGGAUUUUGUUUAUUUUUUUAGCUCAUUUCCAGGGGUGGGAAUAUUUUUUUAAUAUGUGUCAUGAAUAAAGUUGUUUUUGAAA | 3.68 |
| UCAAGUCCUGUGCUACACAUCGUAUGUACCGAAUCGGCCCGGCCCGGCCCGGGGAAAGUAUUAUGUUACGCCGUUCGGAUCUGCACUUCC | -1.54 |

Series 3
Structure (SMILES): CN(C)C(=O)Cn1cc(-c2nc([C@@](C)(c3ccc(-c4cnc(N)nc4)cc3)C3CC3)no2)cn1
Effect on: cell-free assay
Technique: competition with immobilised ligand
Concentration: 1 µM
| target | remaining binding |
| --- | --- |
| EIF2AK2 (Homo sapiens, UniProt P19525) | 100% |
| PIP4K2B (Homo sapiens, UniProt P78356) | 100% |
| PRKG2 (Homo sapiens, UniProt Q13237) | 85% |

Mixed results
| Structure (SMILES) | medium | quantity | value |
| --- | --- | --- | --- |
| CCOC(=O)[C@@H]1CSCC(=O)N[C@@H](CC)C(=O)N(C)[C@@H](C)C(=O)N[C@@H](CC(C)C)C(=O)N2CCC[C@@H]2C(=O)N(CC)CC(=O)N[C@H](CC(C)C)C(=O)N(C)[C@@H](C)C(=O)N[C@@H](CC(C)C)C(=O)N1C | hydrocarbon/water | logD | 0.087 |

A few entries again (series 3):
| target | remaining binding |
| --- | --- |
| EIF2AK2 (Homo sapiens, UniProt P19525) | 100% |
